Literature values, collected from citations in different studies.
Lines come from different studies, so protocols differ. Numbers after ± are the reported error.
Slc6a3: Sodium-dependent dopamine transporter (Slc6a3, Rattus norvegicus, UniProt P23977)
Chain of UniProt P23977 (whole entry, looked up): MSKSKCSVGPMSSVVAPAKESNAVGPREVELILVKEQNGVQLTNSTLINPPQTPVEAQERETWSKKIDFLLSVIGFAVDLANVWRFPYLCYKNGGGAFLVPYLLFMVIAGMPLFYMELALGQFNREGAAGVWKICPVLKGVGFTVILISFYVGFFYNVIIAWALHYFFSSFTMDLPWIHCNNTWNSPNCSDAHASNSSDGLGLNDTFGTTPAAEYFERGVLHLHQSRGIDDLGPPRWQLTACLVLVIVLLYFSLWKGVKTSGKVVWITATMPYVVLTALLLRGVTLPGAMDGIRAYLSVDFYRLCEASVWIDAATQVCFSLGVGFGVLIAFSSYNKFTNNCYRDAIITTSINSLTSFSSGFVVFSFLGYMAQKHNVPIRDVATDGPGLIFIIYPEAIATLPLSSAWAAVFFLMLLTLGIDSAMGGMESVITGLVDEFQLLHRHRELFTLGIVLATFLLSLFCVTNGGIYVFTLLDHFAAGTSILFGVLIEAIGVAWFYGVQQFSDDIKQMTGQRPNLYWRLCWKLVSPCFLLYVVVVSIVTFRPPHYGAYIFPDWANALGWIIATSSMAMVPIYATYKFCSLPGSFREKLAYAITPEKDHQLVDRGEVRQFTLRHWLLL
SLC6A2: Sodium-dependent noradrenaline transporter (SLC6A2, Homo sapiens, UniProt P23975)
Chain of UniProt P23975 (whole entry, looked up): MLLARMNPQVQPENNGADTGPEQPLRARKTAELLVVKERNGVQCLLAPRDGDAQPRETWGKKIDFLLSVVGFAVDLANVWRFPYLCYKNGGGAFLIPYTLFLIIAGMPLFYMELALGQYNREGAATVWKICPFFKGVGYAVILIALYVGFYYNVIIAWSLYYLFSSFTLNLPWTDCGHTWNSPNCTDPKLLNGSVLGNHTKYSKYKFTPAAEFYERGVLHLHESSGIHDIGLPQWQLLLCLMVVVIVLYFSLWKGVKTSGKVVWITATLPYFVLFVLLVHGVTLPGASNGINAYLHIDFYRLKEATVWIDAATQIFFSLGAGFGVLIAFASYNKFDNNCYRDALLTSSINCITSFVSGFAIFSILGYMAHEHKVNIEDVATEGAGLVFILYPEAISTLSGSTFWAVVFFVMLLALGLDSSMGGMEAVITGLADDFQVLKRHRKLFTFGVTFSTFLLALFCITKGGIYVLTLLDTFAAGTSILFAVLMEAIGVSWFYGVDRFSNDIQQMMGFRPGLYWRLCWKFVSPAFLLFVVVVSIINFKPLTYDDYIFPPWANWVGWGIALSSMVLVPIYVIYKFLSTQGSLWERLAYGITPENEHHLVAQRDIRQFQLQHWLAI
Chain of UniProt Q9R0C9 (whole entry, looked up): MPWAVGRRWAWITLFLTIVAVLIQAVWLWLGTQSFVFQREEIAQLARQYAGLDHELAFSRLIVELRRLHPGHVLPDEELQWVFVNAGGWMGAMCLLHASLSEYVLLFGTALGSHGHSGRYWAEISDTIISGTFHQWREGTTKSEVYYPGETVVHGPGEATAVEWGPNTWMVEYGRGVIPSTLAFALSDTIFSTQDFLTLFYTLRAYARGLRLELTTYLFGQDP
Chain of UniProt Q9JI35 (whole entry, looked up): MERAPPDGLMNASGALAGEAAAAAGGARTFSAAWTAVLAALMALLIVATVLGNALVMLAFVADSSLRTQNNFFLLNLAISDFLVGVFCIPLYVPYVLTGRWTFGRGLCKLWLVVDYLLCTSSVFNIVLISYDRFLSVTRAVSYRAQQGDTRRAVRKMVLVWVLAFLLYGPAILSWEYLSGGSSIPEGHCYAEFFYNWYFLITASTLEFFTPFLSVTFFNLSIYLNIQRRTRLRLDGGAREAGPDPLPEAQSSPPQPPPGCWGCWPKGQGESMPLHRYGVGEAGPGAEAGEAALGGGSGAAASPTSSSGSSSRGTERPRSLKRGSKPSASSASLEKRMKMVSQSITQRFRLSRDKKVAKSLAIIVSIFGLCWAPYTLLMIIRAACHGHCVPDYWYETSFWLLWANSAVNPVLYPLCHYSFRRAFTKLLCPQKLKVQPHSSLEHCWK
Chain of UniProt P28221 (whole entry, looked up): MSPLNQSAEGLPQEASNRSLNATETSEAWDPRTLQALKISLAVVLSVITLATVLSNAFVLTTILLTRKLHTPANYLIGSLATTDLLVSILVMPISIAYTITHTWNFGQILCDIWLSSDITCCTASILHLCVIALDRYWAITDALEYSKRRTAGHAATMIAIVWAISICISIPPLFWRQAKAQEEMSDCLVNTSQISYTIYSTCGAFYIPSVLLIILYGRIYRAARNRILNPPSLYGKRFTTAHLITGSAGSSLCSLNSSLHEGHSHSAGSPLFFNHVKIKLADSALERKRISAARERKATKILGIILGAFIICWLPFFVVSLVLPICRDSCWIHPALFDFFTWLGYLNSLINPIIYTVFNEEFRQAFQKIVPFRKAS

Molecule	target or system	assay	test system	conditions	how to read	measurement	result
(+)-methamphetamine	human alpha2-adrenoceptor			with: [3H]rauwolscine	lower = stronger binding	Ki	6100 nM
CNC(C)C(=O)c1ccc2c(c1)OCO2 (stereo not shown)	Transporter (Slc6a2, Rattus norvegicus, UniProt Q63380)					EC50	140 ± 17 nM
C[C@H](CC[C@@H]1OC1(C)C)[C@H]1CC[C@H]2[C@@H]3CC=C4C[C@@H](O)CC[C@]4(C)[C@H]3CC[C@]12C	LXR	reporter gene, agonist				EC50	1000 to 10000 nM
COc1ccc2c(c1)c(CCN1CCOCC1)c(C)n2C(=O)c1cccc(Cl)c1Cl	cannabinoid CB2 receptor (human)	binding				Ki	4 to 12 nM
COc1ccc(CC[C@H]2CCC[C@@H](CCc3ccc(OC)cc3)N2C[C@@H](O)CO)cc1 (relative stereo)	Slc6a3	inhibitor				Ki	1440 nM
COC(=O)[C@H]1[C@@H](c2ccc(F)cc2)C[C@@H]2CC[C@H]1N2C	SLC6A2					Ki	26 nM
C=CCN(CC=C)CCc1c[nH]c2ccc(Br)cc12	Histamine H3 receptor (Cavia porcellus, UniProt Q9JI35)					Ki	1500 nM
O=[P@]1(S)OC[C@H]2O[C@@H](n3cnc4cc(Cl)c(Cl)cc43)[C@H](O)[C@@H]2O1	PDE10	cyclic nucleotide hydrolysis, substrate or inhibitor, isothermal titration calorimetry				Km or Ki	4750 nM
CC(=O)N[C@H](Cc1c[nH]cn1)C(=O)N1CCC[C@@H]1C(=O)N[C@@H]1CSSC[C@H](C(=O)N[C@H](CCC(=O)O)C(=O)N[C@H](CC(C)C)C(=O)NCC(=O)N[C@H](CCCCNC(=O)CCOCCOCCOCCOCCNC(=O)CCOCC(C)(COCCC(=O)NCCOCCOCCOCCOCCC(=O)NCCCC[C@@H](NC(=O)CNC(=O)[C@@H](CC(C)C)NC(=O)[C@@H](CCC(=O)O)NC(=O)[C@H]2CSSC[C@@H](NC(=O)[C@H]3CCCN3C(=O)[C@@H](Cc3c[nH]cn3)NC(C)=O)C(=O)N[C@H](CC(=O)O)C(=O)N[C@H](Cc3ccc(O)cc3)C(=O)N3CCC[C@@H]3C(=O)N[C@H](CCC(=O)O)C(=O)N[C@H](Cc3c[nH]c4ccccc34)C(=O)N[C@H](CCC(N)=O)C(=O)N[C@H](Cc3c[nH]c4ccccc34)C(=O)N[C@H](CC(C)C)C(=O)N2)C(N)=O)COCCC(=O)NCCOCCOCCOCCOCCC(=O)NCCCC[C@@H](NC(=O)CNC(=O)[C@@H](CC(C)C)NC(=O)[C@@H](CCC(=O)O)NC(=O)[C@H]2CSSC[C@@H](NC(=O)[C@H]3CCCN3C(=O)[C@@H](Cc3c[nH]cn3)NC(C)=O)C(=O)N[C@H](CC(=O)O)C(=O)N[C@H](Cc3ccc(O)cc3)C(=O)N3CCC[C@@H]3C(=O)N[C@H](CCC(=O)O)C(=O)N[C@H](Cc3c[nH]c4ccccc34)C(=O)N[C@H](CCC(N)=O)C(=O)N[C@H](Cc3c[nH]c4ccccc34)C(=O)N[C@H](CC(C)C)C(=O)N2)C(N)=O)C(N)=O)NC(=O)[C@@H](CC(C)C)NC(=O)[C@@H](Cc2c[nH]c3ccccc23)NC(=O)[C@@H](CCC(N)=O)NC(=O)[C@@H](Cc2c[nH]c3ccccc23)NC(=O)[C@@H](CCC(=O)O)NC(=O)[C@H]2CCCN2C(=O)[C@@H](Cc2ccc(O)cc2)NC(=O)[C@@H](CC(=O)O)NC1=O	HIV-1	viral entry, luciferase reporter	HOS-CD4-CCR5, JRFL Env pseudovirus			IC50	2.1 ± 0.28 nM
COC(=O)[C@H]1[C@@H](c2ccc(F)cc2)C[C@@H]2CC[C@H]1N2C	SLC6A2	binding				Ki	635 ± 110 nM
CCCCn1cc(C(=O)c2cccc3ccccc23)c2ccccc21	cannabinoid CB1 receptor					Ki	9 nM
C=CCN(CC=C)CCc1c[nH]c2ccccc12	Sigmar1 (Rattus norvegicus, UniProt Q9R0C9)	binding, radioligand binding	rat brain	with: [3H](+)-pentazocine		Ki	101 nM
CN1C(=O)CN=C(c2ccccc2F)c2cc([N+](=O)[O-])ccc21	TSPO			with: [3H]Ro5-4864		Ki	138 nM
C[C@]12CC[C@H]3[C@@H](CCC4=CC(=O)CC[C@@]43C)[C@@H]1CC[C@H]2O	human AKR1D1	substrate				Ki	10000 ± 2200 nM
CCCCCCCCCCCCCCCCCCSC1CC(=O)N(CCC(=O)NCCOCCOCCOCCOCCOCCOCCOCCOCCOCCOCCOCCOCCOCCOCCOCCOCCOCCOCCOCCOCCOCCOCCOCCOCCC(=O)NC(COCCC(=O)NCCOCCOCCOCCOCCC(=O)NCCCC[C@@H](NC(=O)CNC(=O)[C@@H](CC(C)C)NC(=O)[C@@H](CCC(=O)O)NC(=O)[C@H]2CSSC[C@@H](NC(=O)[C@H]3CCCN3C(=O)[C@@H](Cc3c[nH]cn3)NC(C)=O)C(=O)N[C@H](CC(=O)O)C(=O)N[C@H](Cc3ccc(O)cc3)C(=O)N3CCC[C@@H]3C(=O)N[C@H](CCC(=O)O)C(=O)N[C@H](Cc3c[nH]c4ccccc34)C(=O)N[C@H](CCC(N)=O)C(=O)N[C@H](Cc3c[nH]c4ccccc34)C(=O)N[C@H](CC(C)C)C(=O)N2)C(N)=O)(COCCC(=O)NCCOCCOCCOCCOCCC(=O)NCCCC[C@@H](NC(=O)CNC(=O)[C@@H](CC(C)C)NC(=O)[C@@H](CCC(=O)O)NC(=O)[C@H]2CSSC[C@@H](NC(=O)[C@H]3CCCN3C(=O)[C@@H](Cc3c[nH]cn3)NC(C)=O)C(=O)N[C@H](CC(=O)O)C(=O)N[C@H](Cc3ccc(O)cc3)C(=O)N3CCC[C@@H]3C(=O)N[C@H](CCC(=O)O)C(=O)N[C@H](Cc3c[nH]c4ccccc34)C(=O)N[C@H](CCC(N)=O)C(=O)N[C@H](Cc3c[nH]c4ccccc34)C(=O)N[C@H](CC(C)C)C(=O)N2)C(N)=O)COCCC(=O)NCCOCCOCCOCCOCCC(=O)NCCCC[C@@H](NC(=O)CNC(=O)[C@@H](CC(C)C)NC(=O)[C@@H](CCC(=O)O)NC(=O)[C@H]2CSSC[C@@H](NC(=O)[C@H]3CCCN3C(=O)[C@@H](Cc3c[nH]cn3)NC(C)=O)C(=O)N[C@H](CC(=O)O)C(=O)N[C@H](Cc3ccc(O)cc3)C(=O)N3CCC[C@@H]3C(=O)N[C@H](CCC(=O)O)C(=O)N[C@H](Cc3c[nH]c4ccccc34)C(=O)N[C@H](CCC(N)=O)C(=O)N[C@H](Cc3c[nH]c4ccccc34)C(=O)N[C@H](CC(C)C)C(=O)N2)C(N)=O)C1=O (stereo partly shown)	HIV-1	viral entry, luciferase reporter	HOS-CD4-CCR5, JRFL Env pseudovirus			IC50	0.087 ± 0.012 nM
CN1C(=O)CN=C(c2ccccc2)c2cc(Cl)ccc21	GABA-A receptor benzodiazepine site (zebrafish)		zebrafish whole brain membranes	with: [3H]flunitrazepam		Ki	23 ± 4 nM
(−)-cocaine hydrochloride	dopamine transporter, rat	binding	striatum	with: [3H]WIN35,428		Ki	77 nM
Oc1ccc2c3c1O[C@H]1c4[nH]c5c(c4C[C@@]4(O)[C@@H](C2)N(CC2CC2)CC[C@]314)C[C@@]1(O)[C@H]2Cc3ccc(O)c4c3[C@@]1(CCN2CC1CC1)[C@H]5O4	mu opioid receptor					Ki	1.2 to 102 nM
CN1C/C(=C\c2ccc(Cl)cc2Cl)C/C(=C\c2ccc(Cl)cc2Cl)C1	Slc6a3	inhibitor				Ki	6270 nM
C=CCN(CC=C)CCc1c[nH]c2ccc(OC)cc12	HTR1D (Homo sapiens, UniProt P28221)					Ki	107 nM
O=C(c1cccc2ccccc12)c1cn(CCCCCF)c2ccccc12	CB1 receptor	binding				Ki	1 nM
C[C@]12CC[C@H]3[C@@H](CCC4=CC(=O)CC[C@@H]43)[C@@H]1CC[C@@H]2O	human AKR1D1	substrate				Ki	18600 ± 3400 nM

Excerpt of the above:
Molecule	target or system	assay	test system	conditions	how to read	measurement	result
Oc1ccc2c3c1O[C@H]1c4[nH]c5c(c4C[C@@]4(O)[C@@H](C2)N(CC2CC2)CC[C@]314)C[C@@]1(O)[C@H]2Cc3ccc(O)c4c3[C@@]1(CCN2CC1CC1)[C@H]5O4	mu opioid receptor					Ki	1.2 to 102 nM
CN1C/C(=C\c2ccc(Cl)cc2Cl)C/C(=C\c2ccc(Cl)cc2Cl)C1	Slc6a3	inhibitor				Ki	6270 nM
C=CCN(CC=C)CCc1c[nH]c2ccc(OC)cc12	HTR1D (Homo sapiens, UniProt P28221)					Ki	107 nM
O=C(c1cccc2ccccc12)c1cn(CCCCCF)c2ccccc12	CB1 receptor	binding				Ki	1 nM
